Measured values gathered from unrelated publications.
UniProt P53779, sequence (whole entry, looked up): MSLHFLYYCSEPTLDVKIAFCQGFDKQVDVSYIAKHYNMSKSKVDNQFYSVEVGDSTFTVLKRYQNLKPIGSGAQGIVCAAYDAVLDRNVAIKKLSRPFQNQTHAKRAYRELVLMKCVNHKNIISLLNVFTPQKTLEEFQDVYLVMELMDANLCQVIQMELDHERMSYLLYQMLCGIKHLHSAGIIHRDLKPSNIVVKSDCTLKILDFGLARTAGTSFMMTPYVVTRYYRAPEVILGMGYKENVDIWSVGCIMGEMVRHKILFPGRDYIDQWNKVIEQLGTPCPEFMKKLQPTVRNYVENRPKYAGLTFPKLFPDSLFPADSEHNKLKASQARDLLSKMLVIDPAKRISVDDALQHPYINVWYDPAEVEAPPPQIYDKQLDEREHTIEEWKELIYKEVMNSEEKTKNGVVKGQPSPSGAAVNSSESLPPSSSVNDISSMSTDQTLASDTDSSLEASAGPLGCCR
UniProt Q13470, sequence (whole entry, looked up): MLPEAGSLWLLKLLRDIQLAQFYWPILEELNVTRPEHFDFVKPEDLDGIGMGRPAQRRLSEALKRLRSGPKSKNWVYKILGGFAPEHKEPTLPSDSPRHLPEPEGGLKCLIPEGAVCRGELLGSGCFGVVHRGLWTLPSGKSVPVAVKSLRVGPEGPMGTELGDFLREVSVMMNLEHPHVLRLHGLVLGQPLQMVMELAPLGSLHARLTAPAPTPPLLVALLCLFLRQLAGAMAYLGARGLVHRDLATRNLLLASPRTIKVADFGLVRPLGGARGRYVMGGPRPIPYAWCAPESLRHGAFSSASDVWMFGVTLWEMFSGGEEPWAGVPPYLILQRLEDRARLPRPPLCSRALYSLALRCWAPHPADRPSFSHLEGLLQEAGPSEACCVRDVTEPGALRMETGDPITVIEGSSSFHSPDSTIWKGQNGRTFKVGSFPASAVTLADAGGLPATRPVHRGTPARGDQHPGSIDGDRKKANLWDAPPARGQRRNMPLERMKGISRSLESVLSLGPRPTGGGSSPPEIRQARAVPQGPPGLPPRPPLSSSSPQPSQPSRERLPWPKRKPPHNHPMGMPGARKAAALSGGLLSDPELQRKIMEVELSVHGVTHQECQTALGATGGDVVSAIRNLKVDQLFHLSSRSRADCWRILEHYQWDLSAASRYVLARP
UniProt O43148, sequence (whole entry, looked up): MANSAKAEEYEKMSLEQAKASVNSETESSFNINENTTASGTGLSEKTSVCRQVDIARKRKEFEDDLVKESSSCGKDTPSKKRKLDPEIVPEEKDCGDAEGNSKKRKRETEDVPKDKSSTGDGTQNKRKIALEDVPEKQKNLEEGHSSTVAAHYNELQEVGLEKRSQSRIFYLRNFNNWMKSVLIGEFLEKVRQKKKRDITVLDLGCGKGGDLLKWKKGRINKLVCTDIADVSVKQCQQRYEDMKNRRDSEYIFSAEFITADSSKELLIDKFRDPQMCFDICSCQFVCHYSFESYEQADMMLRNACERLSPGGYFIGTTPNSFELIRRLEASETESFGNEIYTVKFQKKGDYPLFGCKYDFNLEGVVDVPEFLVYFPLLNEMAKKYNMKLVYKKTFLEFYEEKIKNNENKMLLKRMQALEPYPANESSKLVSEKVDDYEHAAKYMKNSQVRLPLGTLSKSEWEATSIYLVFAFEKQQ
UniProt O00329, sequence (whole entry, looked up): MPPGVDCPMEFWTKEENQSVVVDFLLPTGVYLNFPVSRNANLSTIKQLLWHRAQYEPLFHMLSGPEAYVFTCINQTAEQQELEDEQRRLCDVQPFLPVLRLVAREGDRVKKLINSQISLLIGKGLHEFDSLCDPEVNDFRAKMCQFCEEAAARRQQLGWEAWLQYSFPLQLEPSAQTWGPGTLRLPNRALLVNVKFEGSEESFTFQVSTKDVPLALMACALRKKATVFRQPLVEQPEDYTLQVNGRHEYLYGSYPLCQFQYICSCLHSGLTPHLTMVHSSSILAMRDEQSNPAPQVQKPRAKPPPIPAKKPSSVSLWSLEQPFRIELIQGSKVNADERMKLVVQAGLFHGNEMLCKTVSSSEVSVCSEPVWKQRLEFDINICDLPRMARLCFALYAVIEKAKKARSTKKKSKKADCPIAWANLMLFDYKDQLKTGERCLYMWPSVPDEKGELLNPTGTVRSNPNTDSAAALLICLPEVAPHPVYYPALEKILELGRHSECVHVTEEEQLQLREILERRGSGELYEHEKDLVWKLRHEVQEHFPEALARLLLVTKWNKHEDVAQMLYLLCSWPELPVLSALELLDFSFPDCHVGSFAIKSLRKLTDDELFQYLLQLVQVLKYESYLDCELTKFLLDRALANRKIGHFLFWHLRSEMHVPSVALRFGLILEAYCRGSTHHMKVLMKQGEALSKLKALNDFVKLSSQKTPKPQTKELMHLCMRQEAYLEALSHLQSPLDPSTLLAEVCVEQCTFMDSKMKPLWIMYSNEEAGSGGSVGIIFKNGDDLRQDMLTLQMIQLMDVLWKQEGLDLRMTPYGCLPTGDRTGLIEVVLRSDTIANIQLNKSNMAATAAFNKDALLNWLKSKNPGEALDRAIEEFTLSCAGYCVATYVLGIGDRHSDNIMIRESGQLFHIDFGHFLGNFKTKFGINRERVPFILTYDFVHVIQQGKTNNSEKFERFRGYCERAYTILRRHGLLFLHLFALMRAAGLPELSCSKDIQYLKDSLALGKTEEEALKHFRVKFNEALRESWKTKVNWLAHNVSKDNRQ
UniProt P27448, sequence (whole entry, looked up): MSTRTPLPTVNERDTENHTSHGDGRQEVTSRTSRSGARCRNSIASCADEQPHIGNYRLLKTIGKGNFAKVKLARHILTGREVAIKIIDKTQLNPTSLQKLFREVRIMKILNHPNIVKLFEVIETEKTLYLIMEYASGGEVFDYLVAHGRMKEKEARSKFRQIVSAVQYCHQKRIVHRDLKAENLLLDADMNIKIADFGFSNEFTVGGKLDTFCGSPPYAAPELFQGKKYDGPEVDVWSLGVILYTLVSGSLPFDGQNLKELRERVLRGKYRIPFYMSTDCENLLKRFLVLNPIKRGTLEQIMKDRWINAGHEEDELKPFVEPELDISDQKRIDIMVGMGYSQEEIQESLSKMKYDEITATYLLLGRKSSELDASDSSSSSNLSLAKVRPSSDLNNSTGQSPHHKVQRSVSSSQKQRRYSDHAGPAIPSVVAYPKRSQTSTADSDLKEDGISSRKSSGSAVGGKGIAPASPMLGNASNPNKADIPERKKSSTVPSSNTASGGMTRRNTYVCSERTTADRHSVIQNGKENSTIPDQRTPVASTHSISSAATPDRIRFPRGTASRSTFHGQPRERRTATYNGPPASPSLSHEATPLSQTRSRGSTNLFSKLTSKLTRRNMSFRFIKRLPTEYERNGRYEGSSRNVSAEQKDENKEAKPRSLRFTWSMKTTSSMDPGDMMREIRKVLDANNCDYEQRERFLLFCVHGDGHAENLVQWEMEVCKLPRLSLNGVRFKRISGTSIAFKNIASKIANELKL
UniProt P48039, sequence (whole entry, looked up): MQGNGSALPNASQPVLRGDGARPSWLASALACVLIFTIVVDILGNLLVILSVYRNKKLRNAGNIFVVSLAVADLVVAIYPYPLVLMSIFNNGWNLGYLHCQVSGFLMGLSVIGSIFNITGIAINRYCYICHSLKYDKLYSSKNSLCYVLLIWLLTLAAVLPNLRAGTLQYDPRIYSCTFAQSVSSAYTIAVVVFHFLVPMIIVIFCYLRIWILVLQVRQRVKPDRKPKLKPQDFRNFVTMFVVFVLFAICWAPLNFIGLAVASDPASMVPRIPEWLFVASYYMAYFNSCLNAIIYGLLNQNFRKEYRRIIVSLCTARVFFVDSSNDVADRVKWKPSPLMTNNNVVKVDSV

| SMILES | target | test | system | conditions | inhibition [%] |
| --- | --- | --- | --- | --- | --- |
| O=C(NC1CCN(c2ncnc3[nH]cnc23)CC1)c1cccc(NS(=O)(=O)c2ccc(C(F)(F)F)cc2)c1 | mRNA cap guanine-N(7) methyltransferase (RNMT, Homo sapiens, UniProt O43148) | enzyme activity, inhibitor | – | 3.125 µM | 7.15 |
| CN(C)[C@H]1C[C@@]23CC[C@@]4(O2)C(=CC[C@]2(C)[C@@H](c5ccc6ccncc6c5)CC[C@H]24)C=C3[C@@H](O)[C@@H]1O | MAP/microtubule affinity-regulating kinase 3 (MARK3, Homo sapiens, UniProt P27448) | ATP probe labelling, inhibitor, KiNativ profiling | – | 0.1 µM | 0.7 |
| CS(C)(=O)=Nc1ccc(-c2ccc(-c3nc4cc(O[C@@H]5CO[C@H]6[C@@H]5OC[C@H]6O)[nH]c4cc3F)cc2)cc1 | Phosphatidylinositol 4,5-bisphosphate 3-kinase catalytic subunit delta isoform, with p85 alpha (PIK3CD, Homo sapiens, UniProt O00329) | kinase activity | – | 10 µM | 3 |
| CN[C@@H]1[C@H](O)[C@H](NC)[C@H]2O[C@]3(O)[C@H](O[C@@H]2[C@H]1O)O[C@H](C)C[C@H]3NC(=O)Cc1cc(Cl)ccn1 | Melatonin receptor type 1A (MTNR1A, Homo sapiens, UniProt P48039) | ligand displacement, radioligand | – | 10 µM | 0 |
| N[C@H](C(=O)N1CCCC1)C1CCN(c2nccc3c(-c4ncc(Cl)cc4Cl)cccc23)CC1 | monoamine oxidase | – | – | 10 µM | 1 |
| O=C(CN1CN(c2ccccc2)C2(CCN(C(=O)c3cnc4[nH]ncc4c3)CC2)C1=O)NCC(F)(F)F | Mitogen-activated protein kinase 10 (MAPK10, Homo sapiens, UniProt P53779) | inhibitor | – | concentration not given | < 50 |
| C[C@H](NCc1ccc(-c2ccc(C(F)(F)F)cc2)cc1)C(N)=O | GABAA receptor central benzodiazepine site, rat | binding, radioligand binding | biochemical | 1 µM, added: [3H]flunitrazepam 1.0 nM | 9 |
| CC(C)[C@H]1NC(=O)C[C@H]2/C=C/CCSSC[C@@H](NC1=O)C(=O)N[C@H](Cc1cccc3ccccc13)C(=O)NCC(=O)O2 | Non-receptor tyrosine-protein kinase TNK1 (TNK1, Homo sapiens, UniProt Q13470) | enzyme activity, inhibitor | – | 10 µM | 0.378 |
